# Measurements gathered from unrelated publications.
# A part holds a random share of what one study measured. Positions count from the first letter of the parent shown.

# Set 1 — technique: protein-binding microarray; form: double-stranded DNA, one strand shown; matrix: in vitro; tested at: 250 nM; setting: 60-bp whole probe; with: salmon DNA 0.4 mg/ml; baseline: random background probes; reading: higher = stronger binding; shared flanks, not repeated: GCCTAGCAC … GTCTTGATTCGCTTGACGCTGCTG
# Target: Interferon regulatory factor 7, full length, phosphomimetic (IRF7, Homo sapiens, UniProt Q92985, residues 1-503, S101K/S471D/S472D/S475D/S476D/S477D/S483D/S484D/S487D)
# UniProt Q92985, sequence (whole entry, unmodified, looked up): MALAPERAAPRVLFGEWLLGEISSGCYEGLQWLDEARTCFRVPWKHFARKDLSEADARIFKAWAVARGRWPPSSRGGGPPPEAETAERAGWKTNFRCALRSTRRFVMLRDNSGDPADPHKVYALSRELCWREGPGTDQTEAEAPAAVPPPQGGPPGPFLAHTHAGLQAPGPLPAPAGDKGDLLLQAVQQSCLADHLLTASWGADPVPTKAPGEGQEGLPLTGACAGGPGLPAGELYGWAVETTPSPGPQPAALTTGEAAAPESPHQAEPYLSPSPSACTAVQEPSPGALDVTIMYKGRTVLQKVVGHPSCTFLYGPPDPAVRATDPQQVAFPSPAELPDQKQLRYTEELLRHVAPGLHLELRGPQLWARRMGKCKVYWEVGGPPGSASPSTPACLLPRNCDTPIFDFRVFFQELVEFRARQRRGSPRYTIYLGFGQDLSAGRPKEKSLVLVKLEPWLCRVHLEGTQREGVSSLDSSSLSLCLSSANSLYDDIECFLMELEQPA
Strand,log fluorescence [z-score]
TTAGATTACAGTCTCGATTAGTGCTAG,1.51
GACGATATCAGTATCGAGTCGTGCTAG,0.75
TCATCTAGGTTTTCTGGAACTGTGCTA,-0.185
TTAGGTCGCGGTATCGGTTAGTGCTAG,1.52
TCACCTCTTTCTTTGCTACTGTGCTAG,1.04
GACGGTATCGTCTATCGGGACGTGCTA,-0.397
TTAGATCTCAGGTTCGATTAGTGCTAG,1.59
TTAGGTTTCCTTTTGCTTTAGTGCTAG,8.27
GACGATATCGGGTATCGAGATGTGCTA,0.0847
GACGGACTGCCTATCCTGACGTGCTAG,-0.569
ATTTTTTTGTAATCGAAATCTGTGCTA,0.792
TTAGGTATCCTTTTTCTTTAGTGCTAG,1.3
TTAGGTCTCGGTTTCGTTTAGTGCTAG,11.5
TTAGGTATCTTACTGCTTTAGTGCTAG,-0.245
GGCGGTCTCCTACTGCTGACGTGCTAG,-0.915
GGGGGAAATGGGAAACCCGGGGTGCTA,1
GACGAACTGAGTATCGAGGCGTGCTAG,-0.285
TTAGATCTGGGGACTGGATTAGTGCTA,-0.0814
TTAGGTCTCCTTTTCCATTAGTGCTAG,1.99

# Set 2 — technique: protein binding microarray; form: double-stranded DNA, one strand shown; matrix: in vitro; tested at: not given; baseline: not given; reading: higher = stronger binding
# Target: Histone acetyltransferase KAT6A, both winged helices, GST fusion (KAT6A, Homo sapiens, UniProt Q92794, residues 1-181)
# Setting: 8-mer, flanks averaged, mean of 2 arrays, mostly near background
# Residues (chain): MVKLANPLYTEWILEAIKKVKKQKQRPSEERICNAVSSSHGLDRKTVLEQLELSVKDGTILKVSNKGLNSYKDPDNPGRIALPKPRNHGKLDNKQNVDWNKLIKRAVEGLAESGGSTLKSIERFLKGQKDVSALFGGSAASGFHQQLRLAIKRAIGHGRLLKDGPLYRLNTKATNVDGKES
Strand,E-score
ATCCATAC,-0.0189
ATCCTGTC,-0.069
CAACACCC,-0.153
GCAACCGA,-0.0701
AGCGTAAG,0.159
CAGCATAG,-0.0784
TATACCAA,-0.0771
CGCAGTTA,0.188
ATACAGAG,-0.069
CCCGTACC,0.219
TCTGTAAA,0.0909
ATCGACCC,-0.059
ATGTGTGC,-0.0968
CCGCATAG,0.222
CAGATTAC,-0.0313
GAGTTACA,-0.07
AGCGAGCG,0.181
GATCACCA,0.039

# Set 3 — technique: protein-binding microarray; form: double-stranded DNA, one strand shown; matrix: in vitro; tested at: 0.8 µM; setting: whole 60-bp probe, no competitor; reading: higher = stronger binding; shared flanks, not repeated: … GTCTTGATTCGCTTGACGCTGCTG
# Target: Centromere-binding protein 1, full length, N-terminal tag (CBF1, Saccharomyces cerevisiae, UniProt P17106, residues 1-351)
# UniProt P17106, sequence (whole entry, looked up): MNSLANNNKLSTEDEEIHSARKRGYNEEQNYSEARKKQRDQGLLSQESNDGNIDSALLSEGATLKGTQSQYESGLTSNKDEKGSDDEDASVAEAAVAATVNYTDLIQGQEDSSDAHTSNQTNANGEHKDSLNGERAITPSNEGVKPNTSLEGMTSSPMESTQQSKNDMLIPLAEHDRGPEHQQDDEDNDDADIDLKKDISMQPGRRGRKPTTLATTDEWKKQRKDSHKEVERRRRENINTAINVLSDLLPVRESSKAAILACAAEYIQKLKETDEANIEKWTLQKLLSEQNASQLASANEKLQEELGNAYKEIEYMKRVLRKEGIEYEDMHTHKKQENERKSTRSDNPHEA
Strand,fluorescence intensity [a.u.]
GAAGTGCCCTCTGGGTAACAGGTGAATATGGAGTAG,496
CTATTGTGAATTCTTCGCGTGGAGTAATTCTAGTTC,569
CTATTTTTCGTGACGCACATGTCTTCAACTGCATTC,751
CTAAAATTACCGTCGCTCGTGATTTGTTTGCAATTC,1120
CTAACTCATTTGTTTCGTGCGCTTTCCTATTGCTTC,499
GAAGTGGATGGTGCTGGTAACATCAAGCTGACCTAG,511
GAATGGATAAGCTGTCATGCTACATTAGCAATATAG,560
CTAAAGAGAGCTAGCTACAGAAATATAAACAGTTTC,485
GAAAAAAAAGCACTTCACGTTTTCCTGCATTTTTAG,602
CTAAATCTTCATAAATTCGTGACAAATTAAAATTTC,545
GAACAATTGGTGACTACCGTGCCTACTTGCGCCTAG,479
GAATATTCTGTTGGTTGCACGTGGTTAGTGTTTTAG,7160
GAAGGCTCAAGAATTTACGTGGTGCCCAATCAATAG,475
CTAGTAACAAAATAGCACGTCAGGGTTAAGGCGTTC,563
CTAGTGTGTCATTGTCATGTGTTCTTACTTCTTTTC,1080
GAAATTATGACCGGTGACGAAACGTGGTCGATGTAG,674
TGTACGAAGCTATTATGCGTGCGTATAGTAGTTAGG,542
CTAAGGAACAACCATCACCCCACACTTTTATCTTTC,551
CTATCTCAATATAGGGAGGTGATCGGGACCAGCTTC,536

# Set 4 — target: CCNE1, cyclin fold, Cln2 fusion (human); technique: yeast growth competition, sequencing; matrix: yeast; setting: weak parent motif; baseline: not given; reading: higher = stronger binding
# Parent: ORC1 docking peptide (human); PRARKRLELGNLG
Substitution,normalised enrichment score
PRARKRLNLGNLG [E8N],0.218
PRARKRQELGNLG [L7Q],0.175
PRARKRHELGNLG [L7H],-0.157
PRHRKRLELGNLG [A3H],0.938
PRARKRLELGNCG [L12C],0.0425
PRARKRLELGNLL [G13L],-0.0455
PRARKRLERGNLG [L9R],0.135
PRAYKRLELGNLG [R4Y],0.246
PRARKRLELGNPG [L12P],0.765
PRARKRLECGNLG [L9C],1.19
PRARKRLELGTLG [N11T],0.635
PRARKRLMLGNLG [E8M],0.442
PRAKKRLELGNLG [R4K],-0.217
PRAWKRLELGNLG [R4W],0.452
PKARKRLELGNLG [R2K],0.265
PRARKNLELGNLG [R6N],0.121
PRARKRLELGNWG [L12W],1.13
PRARKRLELGVLG [N11V],1.14
PRARKRLEDGNLG [L9D],-0.0788
PRARKILELGNLG [R6I],1.03
PRARKRLELVNLG [G10V],0.0417
PRARKRLELGPLG [N11P],1.23
PRARKRLLLGNLG [E8L],1.29
LRARKRLELGNLG [P1L],0.252
PRARKRLELTNLG [G10T],-0.297

# For quick reference, copied from above (set 3):
Strand,fluorescence intensity [a.u.]
GAAGTGCCCTCTGGGTAACAGGTGAATATGGAGTAG,496
CTATTGTGAATTCTTCGCGTGGAGTAATTCTAGTTC,569
CTATTTTTCGTGACGCACATGTCTTCAACTGCATTC,751
CTAAAATTACCGTCGCTCGTGATTTGTTTGCAATTC,1120
CTAACTCATTTGTTTCGTGCGCTTTCCTATTGCTTC,499
GAAGTGGATGGTGCTGGTAACATCAAGCTGACCTAG,511
